Measurements from different studies.
A part holds a random share of what one study measured.

Study 1 — method: protein-binding microarray; molecule type: double-stranded DNA, one strand shown; sample: in vitro; concentration: 940 nM top; notes: 60-bp whole probe; together with: salmon DNA 0.4 mg/ml; relative to: random background probes; direction: higher = stronger binding; quantity: fitted relative affinity; shared flanks, not repeated: GCCTAGCAC … GTCTTGATTCGCTTGACGCTGCTG
Target: Interferon regulatory factor 5, full length, phosphomimetic (IRF5, Homo sapiens, UniProt Q13568-2, residues 1-514, S451D/S453D/S456D/S462D)
GACGAACTGTGTATCGAGACGTGCTAG: 0.393 z-score
GACGATTTCGGGTTTGGAGACGTGCTA: 0.504 z-score
TTAGATTTCGGGTCTCGATTAGTGCTA: 1.99 z-score
TTAGGTTTCAGACTGGATTAGTGCTAG: 2.13 z-score
TCACCTCCCTAATTCTGACTGTGCTAG: 0.933 z-score
TCAGTTTTGCTAAGTCAAACTGTGCTA: 1.07 z-score
TTAGGACTGGGGACTTGGTTAGTGCTA: -0.225 z-score
TTAGGTATCGGGTATAGGTTAGTGCTA: 5.92 z-score
TGCTTTCTCTTTCACTACTCGTGCTAG: 4.05 z-score
TTAGGTCTCAGTCTCGATTAGTGCTAG: 3.63 z-score
TCAAATCTCTCATGTTACACTGTGCTA: 1.26 z-score
TAAGATTTCGGGTATCGATTAGTGCTA: 3.61 z-score
AACGGACTGCTACTGCTGACGTGCTAG: -0.54 z-score
TTCGGTTTCCTACTGCTTTAGTGCTAG: 1.27 z-score
TTTCTTTTTGCACTCTCTACGTGCTAG: 4.45 z-score
GACGCTATCCTTTTCCTGACGTGCTAG: 0.727 z-score
CGGATGATCTCTCTGGGCAAGTGCTAG: -0.222 z-score
TTAGATATCGGGACTGGATAAGTGCTA: 0.0184 z-score
GACGGTATCGGTCTCGTGACGTGCTAG: 7.93 z-score
GACGAAATGGGGTATCGAGACGTGCTA: 1.03 z-score
GAAGATCTCAGTATCGAGACGTGCTAG: 1.58 z-score
TTGGATTTCGGGACTGGATTAGTGCTA: 0.643 z-score
TTAGGTATCGGTCTCAGTTAGTGCTAG: 8.97 z-score
GACGGTTTCGAGTTTCGGGACGTGCTA: 7.18 z-score

Study 2 — target: UBE2R2 UBC core domain (UniProt Q712K3); method: yeast two-hybrid; sample: yeast; notes: mostly zero background; relative to: not given; direction: higher = stronger interaction; quantity: lacZ reporter activity
Sequence of UniProt Q712K3 (whole entry, looked up): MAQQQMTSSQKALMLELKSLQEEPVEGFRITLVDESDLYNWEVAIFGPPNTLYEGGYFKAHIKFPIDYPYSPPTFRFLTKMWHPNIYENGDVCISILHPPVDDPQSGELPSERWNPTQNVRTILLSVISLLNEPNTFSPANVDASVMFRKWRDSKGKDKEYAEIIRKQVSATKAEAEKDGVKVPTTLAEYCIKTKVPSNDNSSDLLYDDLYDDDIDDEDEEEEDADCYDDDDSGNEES
B1: RNF17 RING domain (UniProt Q9BXT8); chain SQPWGAAEIQCTRCGRRVSRSSGHHCELQCGHAFCELCLLMTEECTTIICPDCEVATAVNTRQR
B2: NHLRC1 RING domain (UniProt Q6VVB1); chain MREAEISLLECKVCFEKFGHRQQRRPRNLSCGHVVCLACVAALAHPRTLALECPFCRRACRGCDTSD
B3: TRIM34 RING domain (UniProt Q9BYJ4); chain ILLNVQEEVTCPICLELLTEPLSLDCGHSLCRACITVSNKEAVTSMGGKSSCPVCGISYSFEHLQA
B4: TRIM28 RING domain (UniProt Q13263); chain GAEALELLEHCGVCRERLRPEREPRLLPCLHSACSACLGPAAPAAANSSGDGGAAGDGTVVDCPVCKQQCFSKDIVE
B5: SHPRH RING domain (UniProt Q149N8); chain KTSGGVNPEPCPICARQLGKQWAVLTCGHCFCNECISIIIEQYSVGSHRSSIKCAICRQTTSHKEISY
B6: CBLL1 RING domain (UniProt Q75N03); chain GEKDDTPVHFCDKCGLPIKIYGRMIPCKHVFCYDCAILHEKKGDKMCPGCSDPVQRIEQCT
B7: RNF7 RING domain (UniProt Q9UBF6); chain AICRVQVMDACLRCQAENKQEDCVVVWGECNHSFHNCCMSLWVKQNNRCPLCQQDWVVQRIGK
B8: RFPL3 RING domain (UniProt O75679); chain MAALFQEASSCPVCSDYLEKPMSLECGCTVCLKCINSLQKEPHGEDLLCCCCSMVSQRNKIRP
B1 (RNF17 RING domain): 0
FLSKVEETFQCICCQELVFRPITTVCQHNVCKDCLDRSFRAQVFSCPACRYDLGRSYAMQ (UHRF1 RING domain (UniProt Q96T88)): 0
B2 (NHLRC1 RING domain): 0
B3 (TRIM34 RING domain): 0
EDVLSKDAGECAICLEELQQGDTIARLPCLCIYHKGCIDEWFEVNRSCPEHPSD (ZNRF2 RING domain (UniProt Q8NHG8)): 0
B4 (TRIM28 RING domain): 0
AAQLLEEKLTCAICLGLYQDPVTLPCGHNFCGACIRDWWDRCGKACPECREPFPDGAELR (TRIM65 RING domain (UniProt Q6PJ69)): 0
B5 (SHPRH RING domain): 0
B6 (CBLL1 RING domain): 0
EIKDYKARLTCPCCNMRKKDAVLTKCFHVFCFECVKTRYDTRQRKCPKCNAAFGANDFHR (RNF20 RING domain (UniProt Q5VTR2)): 0
GSEEEEIPFRCFICRQAFQNPVVTKCRHYFCESCALEHFRATPRCYICDQPTGGIFNPA (RNF113B RING domain (UniProt Q8IZP6)): 0
B7 (RNF7 RING domain): 0
SNNDLASLFECPVCFDYVLPPILQCQSGHLVCSNCRPKLTCCPTCRGPLGSIRNLA (SIAH1 RING domain (UniProt Q8IUQ4)): 0
B8 (RFPL3 RING domain): 0

Study 3 — method: protein binding microarray; molecule type: double-stranded DNA, one strand shown; sample: in vitro; concentration: not given; relative to: not given; direction: higher = stronger binding; quantity: E-score
Target: Histone acetyltransferase KAT6A, winged helix 1, GST fusion (KAT6A, Homo sapiens, UniProt Q92794, residues 1-85)
Notes: 8-mer, flanks averaged, mean of 2 arrays, mostly near background
Residues (chain): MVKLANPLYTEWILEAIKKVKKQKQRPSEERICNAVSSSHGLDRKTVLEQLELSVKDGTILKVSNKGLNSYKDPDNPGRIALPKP
GCTAGCCC: -0.0269
GGTGGTAA: -0.0817
CCCATGTA: 0.0219
CATCTAGA: -0.118
AGGCAATA: -0.093
AACCCTAG: -0.201
CATAATAG: 0.0609
TCCTAAGA: -0.147
CCATTTGA: -0.0213
CACCAGTG: -0.0923
CGATGTTA: 0.0625
ATACTAAA: -0.068
AGGAATTA: -0.0975
AATATTCG: -0.113
AACCGGGA: 0.26
AACACTCA: -0.0219
AACCATTC: -0.0529
GTCGGCGA: 0.359
TAACGGGA: 0.189
CCAGCACC: -0.0559
AATATCTG: -0.213
TCACACGA: -0.14
CTATGACC: -0.0247
ACGATTGC: -0.0212
CCGCACTA: 0.147

Study 4 — method: RNA Bind-n-Seq; molecule type: RNA; sample: in vitro; concentration: 1 µM; notes: whole 134-nt RNA, ends assumed; together with: 150 mM KCl; relative to: input library; direction: higher = stronger binding; quantity: log2 enrichment
Target: Ras GTPase-activating protein-binding protein 1, RRM domain (G3BP1, Homo sapiens, UniProt Q13283)
Sequence of UniProt Q13283 (whole entry, looked up): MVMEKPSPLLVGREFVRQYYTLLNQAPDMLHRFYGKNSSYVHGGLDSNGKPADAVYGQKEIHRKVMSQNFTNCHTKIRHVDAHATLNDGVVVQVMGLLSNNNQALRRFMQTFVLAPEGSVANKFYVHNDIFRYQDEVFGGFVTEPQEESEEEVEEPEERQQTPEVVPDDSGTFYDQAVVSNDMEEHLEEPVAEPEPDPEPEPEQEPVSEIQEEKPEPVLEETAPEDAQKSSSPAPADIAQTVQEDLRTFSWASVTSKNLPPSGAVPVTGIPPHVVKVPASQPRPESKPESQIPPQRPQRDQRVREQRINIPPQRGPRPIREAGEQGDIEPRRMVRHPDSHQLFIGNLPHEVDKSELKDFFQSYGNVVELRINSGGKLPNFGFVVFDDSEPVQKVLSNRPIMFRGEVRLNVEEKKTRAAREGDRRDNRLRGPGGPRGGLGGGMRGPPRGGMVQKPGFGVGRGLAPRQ
Shared flanks, not repeated: GGGAGUUCUACAGUCCGACGAUC … UGGAAUUCUCGGGUGUCAAGG
CUCAAGUCCUGUGCUACACAUCGUAUGUACCGAAUCGGUUUUUGGAAAGGAGGAAAGUAUUAUGUUACGCCGUUCGGAUCUGCACUUCCA: -0.306
UAACUUUAGAGGAGGAUCUGAUGGAUAUGGCUGUGGACGUGGAUUUGGGGAUGGCUAUAAUGGGUAUGGAGGAGGACCUGGAGGUGGCAA: -0.745
GUCCUGUGCUACACAUCGUAUGUACCGAAUCGGGAAAAAGGGUUUUUGGGAAAAAGGGAAAGUAUUAUGUUACGCCGUUCGGAUCUGCAC: 0.099
CACAGACAACACGCACCCACACAGACACAGAGGGAAGGGGUUGGGAUGGGGACAGGAUGCACAGCAGGGCGGGGUAGGACCCCAGCCCCU: 0.0194
ACCAUGCAGGUGGGCAUCUUUGGGAAGUGGGGCAAGGGGGGGAUAGGGAGGAAAGUAACACUUUGGGAACAGGUGGUCCCAGGUCGUUUC: -0.364
AAGUCCUGUGCUACACAUCGUAUGUACCGAAUCGGGAAAGGGAAAAAAAGGGUGGGAAAGUAUUAUGUUACGCCGUUCGGAUCUGCACUU: 0.682
AGUCCUGUGCUACACAUCGUAUGUACCGAAUCAAAUUUUUAAAUUUAAACCCCCAAAAAAGUAUUAUGUUACGCCGUUCGGAUCUGCACU: -1.05
UGGCCCUGGUGGCAUGCGGGGAGGAAGAGGUGGCCUCAUGGAUCGUGGUGGUCCCGGUGGAAUGUUCAGAGGUGGCGGUGGUGGAGACAG: 1.33
CCUGUGCUACACAUCGUAUGUACCGAAUCGGGAAAAAAAGGGUUUUUGGGAAAAAAAGGGAAAGUAUUAUGUUACGCCGUUCGGAUCUGC: -0.112
CACAGACAACACGCACCCACACAGACACAGAGAAAAGGGGUUGGGAUGGGGACAGGGUGCACAGCAGGGCGGGGUAGGACCCCAGCCCCU: -0.129
AAGUCCUGUGCUACACAUCGUAUGUACCGAAUCGGGGAAAGGGGUGGGGAAAGGGGAAAGUAUUAUGUUACGCCGUUCGGAUCUGCACUU: 0.986
CACAGACAACACGCACCCACACAGACACAGAGGGAAGGGGUUGGGAUGGGGACAGGGUGCACAGCAGGGCGGGGUAGGACCCCAGGCCCU: -0.304
UGGCCCUGGUUGCAUGCGGGGAGGAAGAGGUGGCCUCAUGGAUCGUGGUGGUCCCGGUGGAAUGUUCAGAGGUGGCCGUGGUGGAGACAG: 0.977
CCUCAAGUCCUGUGCUACACAUCGUAUGUACCGAAUCGGGGUGGUGGGUGGGGAAAGUAUUAUGUUACGCCGUUCGGAUCUGCACUUCCA: 0.19

Repeated from above (study 3):
ATACTAAA: -0.068
CCATTTGA: -0.0213
TAACGGGA: 0.189
AGGCAATA: -0.093
CATAATAG: 0.0609
CATCTAGA: -0.118
AACCCTAG: -0.201
